Assay results pooled from the literature.
Each line is one published result; not all experiments were run side by side.
Route: oral

O=C(c1ccc(F)c(F)c1Nc1ccc(I)cc1F)N1CC(O)([C@@H]2CCCCN2)C1  AUC(0-24) at steady state (human, expansion cohort, plasma; 1.0 mg/kg, geometric mean): 1400 ng·h/mL
C=CC(=O)N1CCC(CNc2ncnc(N)c2-c2ccc(Oc3ccccc3)cc2)CC1  AUC(0-24) ratio (healthy male human, plasma; 75 mg; baseline: compound over total radioactivity): 13%
O=c1[nH]c(=O)c(Cc2cccc(C(F)(F)F)c2)c([C@H]2CC[C@H](c3ccccc3)CC2)[nH]1  AUC(0-24) (human, plasma; 450 mg once daily, day 1, geometric mean): 2940 ng·h/mL
COc1cccc(-c2ccc(NC(=O)C3=C(C(=O)O)CCC3)c(F)c2)c1  AUC(0-24) accumulation ratio (male healthy human, plasma; 50 mg daily, day 13-14, all subjects; baseline: day 0-1): 2.05
CC#C[C@]1(O)CC[C@H]2[C@@H]3CCC4=CC(=O)CCC4=C3[C@@H](c3ccc(N(C)C)cc3)C[C@@]21C  AUC(0-24) geometric mean ratio (human, both sexes, plasma; 600 mg, day 17, together with: ketoconazole; baseline: 1200 mg alone over reference): 87%
O=c1[nH]c(=O)c2c[nH]nc2[nH]1  AUC(0-24) ratio (human, male, plasma; 10 mg, together with: allopurinol 300 mg; baseline: combination over alone): 61.8%
COc1ccc(-c2c(Nc3ccccn3)[nH]c3c(C4=CCCCC4)c(-c4ccccc4)nn3c2=O)cc1  AUC(0-24) at steady state (human, plasma; 200 mg twice daily, cycle 1 day 15, multiple dosing, geometric mean): 244000 ng·h/mL
CC(C)(Sc1ccncc1-c1ccc(C#N)c2ccccc12)C(=O)O  AUC(0-24) ratio (human, male, plasma; 10 mg, together with: allopurinol 300 mg; baseline: combination over alone): 95.9%
CC(C)(Sc1ccncc1-c1ccc(C#N)c2ccccc12)C(=O)O  AUC(0-24) (human, male, Japanese, plasma; 10 mg, day 6, fed, single dose): 195 ng·h/mL
CC(C)[C@@H](CS(=O)(=O)C(C)C)N1C(=O)[C@@](C)(CC(=O)O)C[C@H](c2cccc(Cl)c2)[C@H]1c1ccc(Cl)cc1  AUC(0-24) (healthy human; 60 mg single dose, new tablet, fasted): 2180 ng·h/mL
CCS(=O)(=O)N1CC(CC#N)(n2cc(-c3ncnc4[nH]ccc34)cn2)C1  AUC(0-24) (healthy Chinese human subjects, plasma; 2 mg, single dose, mean): 133 ng·h/mL

Some of these lines once more:
CC(C)[C@@H](CS(=O)(=O)C(C)C)N1C(=O)[C@@](C)(CC(=O)O)C[C@H](c2cccc(Cl)c2)[C@H]1c1ccc(Cl)cc1  AUC(0-24) (healthy human; 60 mg single dose, new tablet, fasted): 2180 ng·h/mL
